Measured values of several laboratories.
Parts stem from different laboratories: compare values within a part only.

Sample 1 — method: protein-binding microarray; molecule type: double-stranded DNA, one strand shown; sample: in vitro; tested at: 250 nM; setting: 60-bp whole probe; together with: salmon DNA 0.4 mg/ml; relative to: random background probes; direction: higher = stronger binding; shared flanks, not repeated: GCCTAGCAC … GTCTTGATTCGCTTGACGCTGCTG
Target: Interferon regulatory factor 7, full length, phosphomimetic (IRF7, Homo sapiens, UniProt Q92985, residues 1-503, S101K/S471D/S472D/S475D/S476D/S477D/S483D/S484D/S487D)
Target sequence (chain): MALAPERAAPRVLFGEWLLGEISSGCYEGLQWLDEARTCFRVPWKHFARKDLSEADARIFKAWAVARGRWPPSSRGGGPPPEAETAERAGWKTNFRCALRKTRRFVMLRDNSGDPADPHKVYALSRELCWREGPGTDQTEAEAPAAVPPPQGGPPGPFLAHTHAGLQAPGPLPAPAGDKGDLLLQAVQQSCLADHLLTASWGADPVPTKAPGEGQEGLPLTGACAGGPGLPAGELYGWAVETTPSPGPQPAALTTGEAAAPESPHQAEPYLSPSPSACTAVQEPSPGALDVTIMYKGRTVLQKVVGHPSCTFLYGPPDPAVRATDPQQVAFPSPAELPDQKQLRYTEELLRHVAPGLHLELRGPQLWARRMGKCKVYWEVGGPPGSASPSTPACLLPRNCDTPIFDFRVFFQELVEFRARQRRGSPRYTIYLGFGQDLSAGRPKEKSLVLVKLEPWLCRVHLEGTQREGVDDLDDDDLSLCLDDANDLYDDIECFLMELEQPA
Oligonucleotide | log fluorescence
GACGGTCTCGGTAGCGGGACGTGCTAG | -0.356 z-score
TTCGATTTCAGTTTCGATTAGTGCTAG | 8.85 z-score
GACGGTATCAGTCTCGGGACGTGCTAG | -0.136 z-score
TTAGGACTGGGGTTGCGGTTAGTGCTA | -0.041 z-score
GACGGTTTCCTTTTCCTGAAGTGCTAG | 7.24 z-score
TTAGAACTGAGACTGGATCAGTGCTAG | -0.0805 z-score
TTAGGACTGGGGAATCGGTTAGTGCTA | 0.0951 z-score
TTAGGACTGGGGTTTCGATTAGTGCTA | 5.5 z-score
GACGGTATCGACTTTAGGGACGTGCTA | 0.329 z-score
GACGATTTCGGGTATCGAGACGTGCTA | 0.883 z-score
TACGGTTTCGGTTTCGGGACGTGCTAG | 15 z-score
TTAGGCCTGGGTTTCGGTTAGTGCTAG | 6.32 z-score
ATATGTATATATGTGTATATGTGCTAG | 0.496 z-score
GACGATTTGAGTATCGAGACGTGCTAG | 0.209 z-score
GCAAGAGGAAAGGAACATCAGTGCTAG | -0.575 z-score
TCAATTTTTTTTTTCATACTGTGCTAG | 0.448 z-score
GCCTTTTATTTGAAAGAAATGTGCTAG | 1.17 z-score
TTAGGACTGGGACTGGGCTAGTGCTAG | -0.342 z-score

Sample 2 — method: RNA Bind-n-Seq; molecule type: RNA; sample: in vitro; tested at: not given; setting: RNA with constant flanks, ends assumed; relative to: input RNA pool; direction: higher = stronger binding
Target: RING finger protein unkempt homolog, zinc fingers 1-6, GST-SBP tag (UNK, Homo sapiens, UniProt Q9C0B0, residues 30-357)
Residues (chain): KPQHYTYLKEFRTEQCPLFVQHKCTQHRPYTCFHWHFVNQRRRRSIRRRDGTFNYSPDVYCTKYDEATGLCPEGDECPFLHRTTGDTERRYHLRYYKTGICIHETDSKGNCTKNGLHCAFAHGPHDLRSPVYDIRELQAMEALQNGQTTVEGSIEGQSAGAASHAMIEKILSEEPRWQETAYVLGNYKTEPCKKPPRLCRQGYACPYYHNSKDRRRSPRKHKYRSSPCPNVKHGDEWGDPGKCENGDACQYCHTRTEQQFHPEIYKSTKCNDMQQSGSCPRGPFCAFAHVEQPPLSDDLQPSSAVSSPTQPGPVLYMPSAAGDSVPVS
Oligonucleotide | bound/input enrichment [ratio]
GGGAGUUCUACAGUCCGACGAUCCCAUCCCUCAGUGACAGUAUGCCUUCUGUAGCAGAUUCUCACUCUAGUCAUUUUUCUGAAUUCCGUUGUUCUGACCUAGAAAGCAUGAAAACUUCUUGUAGUCAUGGUUCCAGUGAUUAUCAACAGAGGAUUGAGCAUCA | 8.24
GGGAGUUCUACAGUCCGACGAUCGAUCUUGGACUUGAUAUUGGUGCCCAGGGAGAACCCCUUGGAUAUCGCCAGGAUGAUCCCCGCUAUCGUUCUUUUCACUCUGGUGGAUAUGGCCAGGAUGCCUUGGGUAUGGACCCCAUGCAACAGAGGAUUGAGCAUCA | 0.0917
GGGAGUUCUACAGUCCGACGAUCCCUCAGGCUGUGCAAAGGACACUGAGAGCCUCUUCCACAUAGAAAUACUCUGCUCUCGCCGCCUCUGGAAAGGCCCUGCAGCCCGACAUUGCUGUAGAGCUGGAGGAUCCGUGAGAUGAGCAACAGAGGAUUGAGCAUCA | 0.378
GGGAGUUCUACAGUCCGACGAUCGCUGCACUCCGUAACUCAACAUGGCAUGCCUUUCUCUCCGUAAACUAUUUAGUGAGAUUUUCCGGGACUAUUUUUCAGUAUCUCUGUACCUGUUAAAGGGGGUGCUUUUCGAUCUAAAAACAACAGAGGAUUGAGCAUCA | 0.249
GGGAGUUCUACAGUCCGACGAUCUUCAAAGCCUUACGUCGACAGUUGCCAGUGACACGUACUAAGAUCGACUGGAACAAGAUCCUCCGCUACAAGAUUGGCAAAGAGAUGCAGAAUGCAUAAAUGAAAAUUGCAUGAGCAGAUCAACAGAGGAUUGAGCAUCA | 0.108
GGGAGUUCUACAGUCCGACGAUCAAUUUUCAUUUCGCUUGUGUUCAUGGUGUGUGCUCCCAACCCCCUUUCCUCCCCUGACCCCUCCGUCCUUCAUUCCCAGUUUUCCGGAAUGAUACUUUAGGAGGAAUAGAUUGUAAAGAGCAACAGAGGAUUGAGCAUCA | 0.512
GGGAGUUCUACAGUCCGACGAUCUAAUAUGACUCUCCAUAUUUUGGUACCAAUUCUGAGACUGUAUGAAUUUUCAGGUGGAACUUCCGCACACACUGAAGCAAAGUUGUGAAGUGCAGGGCGGGAGGUGGGCGUGAGCUUUCUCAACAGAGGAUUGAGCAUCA | 0.126
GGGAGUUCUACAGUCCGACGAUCUGGCUUACCAACUAUUAAACAUUCUACCCUAUAGUAGCUUACAGCAGCUGAGUUUCAUGAUACCGUCCUCACCGUCAUUAAAAUGUUCCUGUUCCCUUUUCACAACUUUUAGAUAAAAGGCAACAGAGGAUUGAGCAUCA | 2.78

Sample 3 — method: aptamer microarray, sandwich; molecule type: DNA with 2'F-ANA; sample: in vitro; tested at: 200 nM; together with: Cy3 exosite-II aptamer, 400 nM; direction: higher = stronger binding; oligonucleotide: GGTTGGTGTGGTTGG
Target: Prothrombin, mature alpha-thrombin (F2, Homo sapiens, UniProt P00734)
Setting: whole 15-mer aptamer, many near background
Modification | mean fluorescence intensity [a.u.]
2'F-ANA at 1 2 3 4 5 9 10 11 12 15 | 50
2'F-ANA at 1 3 4 5 9 10 11 13 14 15 | 47
2'F-ANA at 1 3 4 7 9 13 15 | 127
2'F-ANA at 6 8 10 11 12 15 | 138
2'F-ANA at 1 2 3 6 7 8 9 11 13 14 | 118
2'F-ANA at 2 4 5 10 12 13 15 | 48.2
2'F-ANA at 3 4 8 9 12 13 14 | 344
2'F-ANA at 1 2 3 4 6 7 10 13 | 51
2'F-ANA at 1 2 4 5 8 9 12 13 15 | 69.6
2'F-ANA at 4 6 9 12 13 14 | 79.3
2'F-ANA at 3 4 8 11 12 13 15 | 739
2'F-ANA at 1 2 3 7 9 10 12 15 | 109
2'F-ANA at 6 10 11 14 | 116
2'F-ANA at 1 3 4 5 6 7 9 10 11 12 14 15 | 54.3
2'F-ANA at 8 11 14 | 199
2'F-ANA at 6 7 8 9 12 13 15 | 681
2'F-ANA at 2 5 7 10 11 12 | 50.3
2'F-ANA at 1 2 6 9 10 14 15 | 45.7
2'F-ANA at 1 8 9 10 11 13 | 54.2
2'F-ANA at 1 2 4 6 9 10 11 13 14 15 | 54
2'F-ANA at 3 4 5 6 7 8 9 11 12 13 15 | 109
2'F-ANA at 1 2 3 4 5 8 12 13 14 | 47.4
2'F-ANA at 1 2 5 10 14 | 49.1
2'F-ANA at 3 4 5 6 7 8 9 10 12 13 15 | 53.3
2'F-ANA at 3 4 5 6 7 9 11 12 13 14 15 | 52.4

Sample 4 — method: RNA Bind-n-Seq; molecule type: RNA; sample: in vitro; tested at: 365 nM; relative to: no-protein control; direction: higher = stronger binding
Target: RNA binding protein fox-1 homolog 2, RRM domain, GST-SBP tag (RBFOX2, Homo sapiens, UniProt O43251-10, residues 100-194)
Setting: natural RNA segment, single round, ends assumed
Target sequence (chain): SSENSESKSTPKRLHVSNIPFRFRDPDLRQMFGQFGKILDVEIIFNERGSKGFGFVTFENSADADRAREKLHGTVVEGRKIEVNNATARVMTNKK
Oligonucleotide | RBNS enrichment (R)
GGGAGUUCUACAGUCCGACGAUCUAGAAACCUCAUCUUGGGUACAAGGAAGGAUAGUUCUGUCACUUUAACUUGUUUCAAUGCCUACUUUUAAUGGAGGUUAUUAAACACUUUAACCUCCCUUCUAGCCCACCUGGAAUUCUCGGGUGCCAA | 0.25
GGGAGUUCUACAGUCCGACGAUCCCCAAGAGAAGAGUGUACCAUGCACGUCUGCACCCCAGGCCCUUCCUGAGUCUUCAGGUGCACACAGCCUUCUUGUGGAGCUACUUUUGCAAAUAUUACAAGGUGGGGGGUGGAAUUCUCGGGUGCCAA | 0.696
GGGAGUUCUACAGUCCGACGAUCCUGAGUGACUAACAUGAUGCACAUAACCAAACGGGGCCAAUGGUACAAACUUCACUCAUCAUUUGAAUACAGUAUUUACAGAGGAUGUUUGAGUUGAGAGCUUUUUUAGGUGGAAUUCUCGGGUGCCAA | 0.669
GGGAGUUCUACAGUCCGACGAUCGGUUUUCUCUUUGGUGGUUUCUAAAGUGCCUUAUCUGCAAACAACUUCUUUUCUCCUUCAGGAACUGUGAAUGGCUAGAAGAAGGAGCUCAGUAAACUAGAAGUCCAGGGUGGAAUUCUCGGGUGCCAA | 0.392
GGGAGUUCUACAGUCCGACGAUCGACUUGUUUACUCAUUGAAGCAGAUUUCUGCUUCCUUUUAUUUUUAUAGGAAUAGAGGAAGAAAUGUCAGAUGCGUGCCCAGCUCUUCACCCCCCAAUCUCUUGGUGGGGUGGAAUUCUCGGGUGCCAA | 0.421
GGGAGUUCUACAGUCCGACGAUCACCCUCCAGGUGCCCCUUGCCACACUGAAUGUGGGAAAGUGUGCUGUGGCUACUUCGUGGUCAGAGUGAGCCCCUUGCAGAAUCCCCACUCCAGCAAACAAAGCAACGGCUGGAAUUCUCGGGUGCCAA | 0.559
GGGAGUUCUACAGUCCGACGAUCAGACAAGAAGUGCCCUUAUAAACCCCUGCAGCCCUGCAGCCCUGAAAUAAAUUUUGCAAUUAGUUUCAGUAGCAUUUGUGAAUUUGCAUUCUGAAUCGAGGUGUAGUCCCUGGAAUUCUCGGGUGCCAA | 0.672
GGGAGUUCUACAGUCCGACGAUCAAUGUCAGUGAACAUGAGUAUUACUUCAAAAUCUUACAUCACUUGAUGCUAUAUUCAUUUAUGUCUAAAUCUCUGCUAACAGAUGAAAAUAAUAAAAUUCUAAUAAAAGUUGGAAUUCUCGGGUGCCAA | 0.813
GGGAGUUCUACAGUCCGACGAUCCUUCUACUUUGCCAGUUAUUUCAGACAGCACUACCAAGAGGAGGUGGUCAGCACUUGUUAUUGGCCUAUGAACUAAAAGCAAAUCAAAGCUCAUAAAUCAAAGCUCAUCAUGGAAUUCUCGGGUGCCAA | 0.374

A few entries again (sample 4):
Oligonucleotide | RBNS enrichment (R)
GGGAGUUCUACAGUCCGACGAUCGACUUGUUUACUCAUUGAAGCAGAUUUCUGCUUCCUUUUAUUUUUAUAGGAAUAGAGGAAGAAAUGUCAGAUGCGUGCCCAGCUCUUCACCCCCCAAUCUCUUGGUGGGGUGGAAUUCUCGGGUGCCAA | 0.421
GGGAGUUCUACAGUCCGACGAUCUAGAAACCUCAUCUUGGGUACAAGGAAGGAUAGUUCUGUCACUUUAACUUGUUUCAAUGCCUACUUUUAAUGGAGGUUAUUAAACACUUUAACCUCCCUUCUAGCCCACCUGGAAUUCUCGGGUGCCAA | 0.25
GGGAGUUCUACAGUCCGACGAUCCUUCUACUUUGCCAGUUAUUUCAGACAGCACUACCAAGAGGAGGUGGUCAGCACUUGUUAUUGGCCUAUGAACUAAAAGCAAAUCAAAGCUCAUAAAUCAAAGCUCAUCAUGGAAUUCUCGGGUGCCAA | 0.374
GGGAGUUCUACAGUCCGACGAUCGGUUUUCUCUUUGGUGGUUUCUAAAGUGCCUUAUCUGCAAACAACUUCUUUUCUCCUUCAGGAACUGUGAAUGGCUAGAAGAAGGAGCUCAGUAAACUAGAAGUCCAGGGUGGAAUUCUCGGGUGCCAA | 0.392
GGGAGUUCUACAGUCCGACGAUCCUGAGUGACUAACAUGAUGCACAUAACCAAACGGGGCCAAUGGUACAAACUUCACUCAUCAUUUGAAUACAGUAUUUACAGAGGAUGUUUGAGUUGAGAGCUUUUUUAGGUGGAAUUCUCGGGUGCCAA | 0.669
